Measured values from different studies.
Parts stem from different laboratories: compare values within a part only.

Study 1 — method: universal PBM; form: double-stranded DNA, one strand shown; matrix: in vitro; tested at: not given; direction: higher = stronger binding
Target: Sal-like protein 4, full length isoform B (SALL4, Homo sapiens, UniProt Q9UJQ4-2, residues 1-616)
Notes: 8-mer, flanks averaged, mean of replicates
`GGTAATAA` gave an E-score of 0.324.
`AGACGGAC` gave an E-score of -0.208.
With `AGCTGAGG` the E-score was -0.135.
For `CTGAACAA`, the E-score was 0.0696.
For `AGCGACCG`, the E-score was -0.347.
`ACGCCCGT` gave an E-score of -0.107.
With `GGAGGGGA` the E-score was -0.185.
`GCATCCGA` gave an E-score of -0.264.

Study 2 — method: protein-binding microarray; form: hairpin DNA; matrix: in vitro; tested at: not given; reference: not given; direction: higher = stronger binding; constant ends, left off below: GAGGCCG … CGGCCTCACACTC
Target: Cyclic AMP-dependent transcription factor ATF-1, full length (ATF1, Homo sapiens, UniProt P18846, residues 1-271)
Notes: whole hairpin DNA, median over replicate spots
Residues (chain): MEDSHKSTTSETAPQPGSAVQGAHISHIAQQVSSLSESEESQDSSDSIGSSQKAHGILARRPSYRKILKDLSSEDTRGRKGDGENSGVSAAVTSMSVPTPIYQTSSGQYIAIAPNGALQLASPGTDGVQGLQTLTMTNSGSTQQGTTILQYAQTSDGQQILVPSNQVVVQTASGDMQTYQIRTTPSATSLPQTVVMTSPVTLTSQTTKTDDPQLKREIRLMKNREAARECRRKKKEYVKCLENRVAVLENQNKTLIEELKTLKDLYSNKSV
For `GCTGACGTCTGCCTCCTGGCAGACGTCAGC`, the median fluorescence was 5430 a.u.
For `ACGACCGCGTGCCTCCTGGCACGCGGTCGT (5mC at 9 13 15 29 35)`, the median fluorescence was 3590 a.u.
The median fluorescence of `GACGACGTCAGCCTCCTGGCTGACGTCGTC (5mC at 10)` is reported as 9150 a.u.
`ACGACGTCCGGCCTCCTGGCCGGACGTCGT (5mC at 9 15 16 28 35)` has a median fluorescence of 3550 a.u.
With `ACGACGTGGTGCCTCCTGGCACCACGTCGT (5mC at 9 29 30 35)` the median fluorescence was 5340 a.u.
For `ACGAGGTCGTGCCTCCTGGCACGACCTCGT (5mC at 9 15 29 33 35)`, the median fluorescence was 3070 a.u.
The median fluorescence of `GATGACGGCAGCCTCCTGGCTGCCGTCATC` is reported as 4580 a.u.
For `GATGACCTCAGCCTCCTGGCTGAGGTCATC`, the median fluorescence was 3530 a.u.
For `GCTGACATCAGCCTCCTGGCTGATGTCAGC`, the median fluorescence was 3480 a.u.
`AAGACGTCGTGCCTCCTGGCACGACGTCTT (5mC at 15 29 35)` gave a median fluorescence of 3550 a.u.

Study 3 — method: protein-binding microarray; form: double-stranded DNA, one strand shown; matrix: in vitro; tested at: 250 nM; notes: 60-bp whole probe; with: salmon DNA 0.4 mg/ml; reference: random background probes; direction: higher = stronger binding; constant ends, left off below: GCCTAGCAC … GTCTTGATTCGCTTGACGCTGCTG
Target: Interferon regulatory factor 7, full length, phosphomimetic (IRF7, Homo sapiens, UniProt Q92985, residues 1-503, S101K/S471D/S472D/S475D/S476D/S477D/S483D/S484D/S487D)
Residues (chain): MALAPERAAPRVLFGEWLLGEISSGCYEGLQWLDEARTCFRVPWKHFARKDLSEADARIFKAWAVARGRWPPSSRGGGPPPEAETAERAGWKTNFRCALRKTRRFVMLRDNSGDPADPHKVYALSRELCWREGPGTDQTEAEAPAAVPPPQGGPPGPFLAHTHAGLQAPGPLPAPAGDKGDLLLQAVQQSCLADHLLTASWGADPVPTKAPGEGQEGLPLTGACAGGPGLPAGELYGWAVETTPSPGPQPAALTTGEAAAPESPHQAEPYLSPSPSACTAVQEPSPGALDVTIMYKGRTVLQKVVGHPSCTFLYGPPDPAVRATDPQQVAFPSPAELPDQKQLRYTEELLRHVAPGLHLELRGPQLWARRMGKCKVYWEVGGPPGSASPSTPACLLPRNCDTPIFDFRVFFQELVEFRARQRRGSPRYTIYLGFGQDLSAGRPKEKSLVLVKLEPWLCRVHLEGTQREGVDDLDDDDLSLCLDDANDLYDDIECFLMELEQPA
For `GACGATTTCGGGTACCGAGACGTGCTA`, the log fluorescence was 0.215 z-score.
With `GACGATATCGGTTTCGGGACGTGCTAG` the log fluorescence was 3.43 z-score.
`TTAGGACTGCTTCTCCTTCAGTGCTAG` has a log fluorescence of 0.445 z-score.
`CTGGCCTGGGGTCTGCAGAGGTGCTAG` gave a log fluorescence of -0.833 z-score.
The log fluorescence of `TACGGTTTCCTTTTCCTGACGTGCTAG` is reported as 6.96 z-score.
`TCAGATTTCAGTTTTCTACTGTGCTAG` has a log fluorescence of 0.745 z-score.
The log fluorescence of `CACTCTCTACATGTGTTTAAGTGCTAG` is reported as 0.715 z-score.
`GACGCTATCAGTCTCGAGACGTGCTAG` gave a log fluorescence of 0.686 z-score.

Further values, each from its own experiment
The fold induction of `PhoQ, residues 284 288 289 292 302 303 ALVSVA` is reported as 5.07 (PhoP, residues 12 14 15 18 19 NQGLL (Escherichia coli, UniProt P23836); Sort-seq, refers to: YFP reporter; E. coli; PhoQ-PhoP variant library, with: 10 µM Mg2+; reference: high Mg2+ state, higher = stronger signaling).

Repeated from above (study 2):
With `ACGACGTGGTGCCTCCTGGCACCACGTCGT (5mC at 9 29 30 35)` the median fluorescence was 5340 a.u.
For `ACGAGGTCGTGCCTCCTGGCACGACCTCGT (5mC at 9 15 29 33 35)`, the median fluorescence was 3070 a.u.
The median fluorescence of `GATGACGGCAGCCTCCTGGCTGCCGTCATC` is reported as 4580 a.u.
For `GATGACCTCAGCCTCCTGGCTGAGGTCATC`, the median fluorescence was 3530 a.u.
For `GCTGACATCAGCCTCCTGGCTGATGTCAGC`, the median fluorescence was 3480 a.u.
